Experimental data from different studies.
Lines come from different studies, so protocols differ.
Target: Kappa-type opioid receptor (OPRK1, Homo sapiens, UniProt P41145)

SMILES | assay | setting | Ki [µM]
Cc1cc(O)cc(C)c1CC(N)C(=O)NC1CCNc2ccc(Cc3ccc4ncccc4c3)cc21 (stereo not drawn) | ligand displacement, radioligand | cell membranes | 0.12
Cc1cc(O)cc(C)c1CC(N)C(=O)NC1CCNc2c(Br)cc(Cc3ccccc3)cc21 (stereo not drawn) | ligand displacement, radioligand | cell membranes | 0.013
C[C@@H](CN1CCC(Cc2ccccc2)CC1)[C@@H](O)c1ccc(O)cc1 | cell-free assay |  | 3.1
Cc1cc(O)cc(C)c1CC(N)C(=O)NC1CCNc2c(CN3CCCCC3)cc(Cc3ccccc3)cc21 (stereo not drawn) | ligand displacement, radioligand | cell membranes | 0.00093
CC(C)C[C@H](NC(=O)[C@H](Cc1cccc2ccccc12)NC(=O)CNC(=O)[C@H](NC(=O)[C@@H](N)Cc1ccc(O)cc1)[C@H](C)O)C(=O)N[C@@H](CO)C(N)=O | ligand displacement, radioligand | pH 7.4, cell membranes | 0.025
CC1(C)SCCSC[C@@H](NC(=O)[C@@H](N)Cc2ccc(O)cc2)C(=O)N[C@@H](Cc2ccccc2)C(=O)N[C@H]1C(N)=O | ligand displacement, radioligand | cell membranes | 9.54
Cc1cc(O)cc(C)c1CC(N)C(=O)NC1CCNc2c(CN3CCOCC3)cc(Cc3ccccc3)cc21 (stereo not drawn) | ligand displacement, radioligand | cell membranes | 0.0073
C[C@@H](Cc1ccsc1)NC(=O)NC[C@H](Cc1ccc(O)cc1)N(C)C | cell-free assay |  | 0.024
CCCCC(=N)NCc1ccc2[nH]c3c(c2c1)CC1(O)C2Cc4ccc(O)c5c4C1(CCN2CC1CC1)C3O5 (stereo not drawn) | ligand displacement, radioligand | cell membranes | 0.00027
Cc1cc(O)cc(C)c1CC(N)C(=O)NC1CCNc2c(CCc3ccccc3)cc(Cc3ccccc3)cc21 (stereo not drawn) | ligand displacement, radioligand | cell membranes | 0.027
CC(=O)N1CCC(NC(=O)C(N)Cc2c(C)cc(O)cc2C)c2cc(CN3CCC4CCCCC4C3)ccc21 (stereo not drawn) | ligand displacement, radioligand | cell membranes | 0.015
CC(C)C[C@H](NC(=O)[C@H](Cc1ccc2ccccc2c1)NC(=O)CNC(=O)[C@H](NC(=O)[C@@H](N)Cc1ccc(O)cc1)[C@H](C)O)C(=O)N[C@@H](CO)C(N)=O | ligand displacement, radioligand | pH 7.4, cell membranes | 0.125
Cc1cc(O)cc(C)c1CC(N)C(=O)NC1CCNc2ccc(Cc3cccnc3)cc21 (stereo not drawn) | ligand displacement, radioligand | cell membranes | 0.066
Oc1cccc(CCN(CCc2ccccc2)CC2CCCC2)c1 | cell-free assay |  | 0.00023
Cc1cc(O)cc(C)c1CC(N)C(=O)NC1CCNc2ccc(CN3CCOCC3)cc21 (stereo not drawn) | ligand displacement, radioligand | cell membranes | 0.17
Cc1cc(O)cc(C)c1CC(N)C(=O)NC1CCNc2c1cc(Cc1ccccc1)cc2C(C)(C)C (stereo not drawn) | ligand displacement, radioligand | cell membranes | 0.048
Cc1cc(O)cc(C)c1CC(N)C(=O)NC1CCNc2ccc(Cn3cncn3)cc21 (stereo not drawn) | ligand displacement, radioligand | cell membranes | 0.45
CC(C)[C@H]1CC[C@@H](N2CC[C@@](C)(c3cccc(O)c3)[C@@H](C)C2)CC1 | ligand displacement, radioligand |  | 0.0511
